Measurements collected from several papers.
A part holds a random share of what one study measured. Changes are numbered by the printed parent chain.

Study 1 — target: CCND3, cyclin fold, Cln2 fusion (human); technique: yeast growth competition, sequencing; medium: yeast; setting: weak parent motif; reference: not given; reading: higher = stronger binding
Starting sequence: USP37 docking peptide (human); PSAKRSLGFLPQP; partner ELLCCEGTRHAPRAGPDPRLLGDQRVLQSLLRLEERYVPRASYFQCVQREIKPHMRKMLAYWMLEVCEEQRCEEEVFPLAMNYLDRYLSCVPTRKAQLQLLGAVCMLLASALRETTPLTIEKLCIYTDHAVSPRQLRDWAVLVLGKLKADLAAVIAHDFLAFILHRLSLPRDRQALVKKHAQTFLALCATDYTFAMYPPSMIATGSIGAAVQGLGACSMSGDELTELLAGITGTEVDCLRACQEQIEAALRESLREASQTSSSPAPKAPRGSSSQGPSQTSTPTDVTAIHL
Substitution | normalised enrichment score
PSAARSLGFLPQP [K4A] | 0.567
PSAKRSAGFLPQP [L7A] | 0.157
PSAKRSLAFLPQP [G8A] | 0.144
PSAKRSLGFAPQP [L10A] | 0.212
PSAKRSLGFLAQP [P11A] | 0.0679
PAAKRSLGFLPQP [S2A] | 0.304

Study 2 — technique: RNA Bind-n-Seq; molecule type: RNA; medium: in vitro; tested at: 1 µM; setting: whole 134-nt RNA, ends assumed; added: 150 mM KCl; reference: input library; reading: higher = stronger binding
Target: Ras GTPase-activating protein-binding protein 1, C-terminal RGG region (G3BP1, Homo sapiens, UniProt Q13283)
UniProt Q13283, sequence (whole entry, looked up): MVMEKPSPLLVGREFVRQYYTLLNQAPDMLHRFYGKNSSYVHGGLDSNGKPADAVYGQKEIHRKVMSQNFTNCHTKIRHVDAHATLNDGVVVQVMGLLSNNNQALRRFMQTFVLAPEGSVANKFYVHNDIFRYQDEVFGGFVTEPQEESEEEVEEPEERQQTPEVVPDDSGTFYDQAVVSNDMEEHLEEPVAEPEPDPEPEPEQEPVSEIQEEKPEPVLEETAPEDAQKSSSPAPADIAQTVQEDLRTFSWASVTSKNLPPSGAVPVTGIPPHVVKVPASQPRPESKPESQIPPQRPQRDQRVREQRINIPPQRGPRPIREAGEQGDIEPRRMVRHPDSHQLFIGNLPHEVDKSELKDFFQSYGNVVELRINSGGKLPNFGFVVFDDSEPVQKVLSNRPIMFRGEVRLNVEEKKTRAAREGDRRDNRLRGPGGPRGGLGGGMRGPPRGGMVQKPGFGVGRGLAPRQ
Constant ends, left off below: GGGAGUUCUACAGUCCGACGAUC … UGGAAUUCUCGGGUGUCAAGG
Strand | log2 enrichment
UCCUGUGCUACACAUCGUAUGUACCGAAUCGGGGAGGGGAAAAAGGGGAAAAAAAGGGGAAAGUAUUAUGUUACGCCGUUCGGAUCUGCA | 1.01
CACAGACAACACGCACCCACACAGACACAGAGGGAAGGGGUUGGGAUGGGGACAGGGUGCACAGCAGGGCGGGGUAGAAACCCAGCCCCU | -0.0442
UGUGCUACACAUCGUAUGUACCGAAUCGGCCCCCCCGGGGCCCCCCCGGGGCCCCCCCGGGGAAAGUAUUAUGUUACGCCGUUCGGAUCU | -2.68
UGUGCUACACAUCGUAUGUACCGAAUCGGGGCCCCCCCGGGCCCCCCCGGGCCCCCCCGGGGAAAGUAUUAUGUUACGCCGUUCGGAUCU | -2.67
GUCCUGUGCUACACAUCGUAUGUACCGAAUCGGGCCCCCGGGGCCCCCGGCCCCCGGGGAAAGUAUUAUGUUACGCCGUUCGGAUCUGCA | -2.05
AAGUCCUGUGCUACACAUCGUAUGUACCGAAUCGGGGAGGGGAAAAAGGGGAGGGGAAAGUAUUAUGUUACGCCGUUCGGAUCUGCACUU | 2.53
UCCUGUGCUACACAUCGUAUGUACCGAAUCGGGAAAGGGAAAAAAAGGGUUUUUUUGGGAAAGUAUUAUGUUACGCCGUUCGGAUCUGCA | -0.734
CAAGUCCUGUGCUACACAUCGUAUGUACCGAAUCGGUUUUGGGGUUUUGGUUUUGGAAAGUAUUAUGUUACGCCGUUCGGAUCUGCACUU | -1.35
UCCUGUGCUACACAUCGUAUGUACCGAAUCGGGGCCCCCGGGGCCCCCGGGCCCCCGGGAAAGUAUUAUGUUACGCCGUUCGGAUCUGCA | -2.14
CAAGUCCUGUGCUACACAUCGUAUGUACCGAAUCAAACCCAAAUUUAAAUUUAAAAAAGUAUUAUGUUACGCCGUUCGGAUCUGCACUUC | -0.75
UCCUCAAGUCCUGUGCUACACAUCGUAUGUACCGAAUCGGGAGGGAGGAGGGAAAGUAUUAUGUUACGCCGUUCGGAUCUGCACUUCCAG | 0.579
UCAAGUCCUGUGCUACACAUCGUAUGUACCGAAUCGGGCCGGGGCCGGGGCCGGAAAGUAUUAUGUUACGCCGUUCGGAUCUGCACUUCC | -2.46
UCCUGUGCUACACAUCGUAUGUACCGAAUCGGGGAAAAAGGGGAAAAAGGGGAAAAAGGGAAAGUAUUAUGUUACGCCGUUCGGAUCUGC | -0.35
UCCUCAAGUCCUGUGCUACACAUCGUAUGUACCGAAUCGGGGAGGAGGAGGGAAAGUAUUAUGUUACGCCGUUCGGAUCUGCACUUCCAG | -0.502

Study 3 — technique: RNA Bind-n-Seq; molecule type: RNA; medium: in vitro; tested at: 365 nM; reference: no-protein control; reading: higher = stronger binding
Target: RNA binding protein fox-1 homolog 2, RRM domain, GST-SBP tag (RBFOX2, Homo sapiens, UniProt O43251-10, residues 100-194)
Setting: natural RNA segment, single round, ends assumed
Constant ends, left off below: GGGAGUUCUACAGUCCGACGAUC … UGGAAUUCUCGGGUGCCAA
Target sequence (chain): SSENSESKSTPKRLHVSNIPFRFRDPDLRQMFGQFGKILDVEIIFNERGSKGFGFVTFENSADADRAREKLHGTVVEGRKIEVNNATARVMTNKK
Strand | RBNS enrichment (R)
GGGACUAUGGGAGAAUACUUUACUGUGAGUGGAAAAUGUUAGCACAUUUGACUGGUUUGCCCUGGAAUCCACUGCACCUUUACACUGCACCAUGAAACCUACACUCCCUG | 0.757
AUAGUGCAGGCUUGGGGAGCUUUAAGCCUCAGUUAUAUAACCCACGAAAAACAGAGCCUCCUAGAUGUAACAUUCCUGAUCAAGGUACAAUUCUUUAAAAUUCACUAAUG | 0.335
UCCAGAAAUGAUCAUCUGGUUAUGGAAUGAAGGGACCUGUUCUCAAGCAAAGGUCAUCACAGUGACCCAACCCAGACACUUCCCCAGCAGCCUCCCCAUACUCUGCUCCU | 0.2
AAAACCUUCUGUAAUAUAUUUAAAUAUAUAUUUUUAAGAGAGAUGCUACAUUGCCAAUGAUUUUAUAAAUAAUUUAAAAUUAAUUUACAAAUUUAUAGAUGCAAACCAAA | 0.862
CAUACUUUAUAAGUAAAGCGCUAUGAAUGCUGUGGAGACCAAGGUGAAAUAAAUAGUGCAAAUGUGUAGGAAUAAUUAGAUUGCAGUUUCCAUACAUCCGCAAGCCCAGU | 1.96
AAAGGAAGGUUUUCACCUGUAGAAAGCCCCCUGCCUCCAGCCAAAUAGUCCCAUGCUGACUUUCUAUCUUCCUUUCUCAAACUGUCUUAGGAAGGACCUUCAGUGCAGAU | 0.377
ACGUUUCUACCAGUGUUUCAAUUUAAAGUGCUAGUGUUUAAAAACAUUUUCAAGGGAUAAGGCCUUCUGUACUUUGCUUAUUUGAAGAAUCAGUGGUAGGAGCAGUGAAG | 0.588
AUGCUCUGCUGGAGUGUUGGCCUCACCCCAGUCCCCUUGCCAGCAACAUCACUGCCCUUGGACGAGACUCAGUGGAAGACACUUCCCCUCGGACCCGUUCCCAGGAGGUG | 0.232
CUCAAUGUCAACUUUUUUCACUGAAUAAAAAUUUAACUGGGUCAAGAAAACACCUCUUUGAAAAUCCACUGUCUCUGUGUGUCUCGAGCUGUUCUUUAGAGCGCAAUAAA | 0.643
GAAAAAUCAGCAAAGAGUAUGGUUUUUAUCAAGAAUUUGUGUUGGGAGUAAAAACUGCUUUAUAGCUCCCAAAUUAGGAAGAGAAGAGCAGAAAUCCUCUGGGGCAUUUA | 0.716
UUUGCUGUUUUAGAAAGUGAUUCUACAAUCUCGGCUGUCAGGACAGCUGGGAUGCUUACUGUGAAAGGGUCUUGUGAGUGACUAAUGGAAUAUAUGGCUGUGAGAUUUUG | 0.429
CUGCUAUCUGUCCUUACUUGUGGGCUUCUCCAUGCUGUGCCAAUGGCUGGCUUUUUCUACACCCUCUUUUGAGUGUAGUUUGGUAUUUUGUAAUUGAGAGCUCAUUUCAA | 0.297

Study 4 — technique: protein-binding microarray; molecule type: double-stranded DNA, one strand shown; medium: in vitro; tested at: 940 nM top; setting: 60-bp whole probe; added: salmon DNA 0.4 mg/ml; reference: random background probes; reading: higher = stronger binding; constant ends, left off below: GCCTAGCAC … GTCTTGATTCGCTTGACGCTGCTG
Target: Interferon regulatory factor 5, full length, phosphomimetic (IRF5, Homo sapiens, UniProt Q13568-2, residues 1-514, S451D/S453D/S456D/S462D)
Strand | fitted relative affinity
TTAGGTTTCGGTTTCGGTTCGTGCTAG | 17.2 z-score
GACGATACCAGTTTCGAGACGTGCTAG | 4.81 z-score
GACCAACTGGGGACTGGAGACGTGCTA | -0.19 z-score
TCAGAGCTCCTCCTTCTCACTGTGCTA | -0.225 z-score
GACGGTATCCTAATGCTGACGTGCTAG | -0.0702 z-score
TCAACTCGCCTTTTTTGACTGTGCTAG | 0.255 z-score
GACGGACGGGACTTTCGGGACGTGCTA | 0.333 z-score
GACGTTTTCCTTATCCTGACGTGCTAG | 1.38 z-score
TGTTGTCTGTGTTTCCTTGTGTGCTAG | 1.03 z-score
TTAGAACTGGGTTTCGATTAGTGCTAG | 6.49 z-score
GTAGGACTGGGTTTCGGTTAGTGCTAG | 6.6 z-score

Study 5 — technique: DHFR PCA, deep sequencing; medium: yeast; added: (+)-ABA 200 µM; reference: wild-type fitted maximum; reading: higher = stronger binding
Target: ABI1, truncated, D143A, DHFR fusion (Arabidopsis thaliana)
Setting: methotrexate growth selection, single substitutions
Starting sequence: PYL1, truncated, DHFR fusion (Arabidopsis thaliana); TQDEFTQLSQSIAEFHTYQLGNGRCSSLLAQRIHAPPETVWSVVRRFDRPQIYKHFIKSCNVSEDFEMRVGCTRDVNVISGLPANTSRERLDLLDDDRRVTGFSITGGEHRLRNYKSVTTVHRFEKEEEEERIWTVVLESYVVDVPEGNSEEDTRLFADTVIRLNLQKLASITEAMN; partner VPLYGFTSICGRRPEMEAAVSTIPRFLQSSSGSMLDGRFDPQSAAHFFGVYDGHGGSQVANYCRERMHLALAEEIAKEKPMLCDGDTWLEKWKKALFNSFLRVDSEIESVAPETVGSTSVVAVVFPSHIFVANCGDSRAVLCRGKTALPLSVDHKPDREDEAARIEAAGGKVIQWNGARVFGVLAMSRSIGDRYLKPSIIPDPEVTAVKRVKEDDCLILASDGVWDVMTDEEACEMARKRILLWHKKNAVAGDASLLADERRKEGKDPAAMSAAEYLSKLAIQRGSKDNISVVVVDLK
Substitution | relative binding score
S171H | 95.3%
D159E | 93.9%
R24C | 96.7%
S63H | 102%
L91Q | 17.3%
I162Y | 4.1%
S42P | 88.2%
V137W | -2.92%
L112D | -15.3%
P146Y | 20.2%
R111V | 19.7%
R163S | 84.7%
S80D | 44.6%
V161A | 21.6%

Study 6 — technique: protein binding microarray; molecule type: double-stranded DNA, one strand shown; medium: in vitro; tested at: not given; reference: not given; reading: higher = stronger binding
Target: Histone acetyltransferase KAT6A, both winged helices, GST fusion (KAT6A, Homo sapiens, UniProt Q92794, residues 1-181)
Setting: 8-mer, flanks averaged, mean of 2 arrays, mostly near background
Residues (chain): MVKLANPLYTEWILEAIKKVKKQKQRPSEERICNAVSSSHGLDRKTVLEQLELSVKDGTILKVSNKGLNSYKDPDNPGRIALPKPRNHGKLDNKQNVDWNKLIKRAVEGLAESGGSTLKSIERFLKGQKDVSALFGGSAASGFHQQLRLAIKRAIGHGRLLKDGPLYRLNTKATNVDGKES
Strand | E-score
AAGCGCTT | 0.304
ATGGTCAC | -0.0496
GGTATACC | 0.16
CAAACCTA | -0.233
TCGCTGAA | -0.0176
GGGCGTTA | 0.0429
CCCCTGTC | -0.113
TAGAACGA | -0.0337
ATGTTCAC | -0.1
ACTAAATC | -0.0701
CTGACTGA | -0.142
ACCAGCTG | -0.0715
GGATGGAA | -0.0935
AGAATGTC | -0.173
GGCCGGCC | 0.304
TATCAAGA | -0.211
CTCTATGA | -0.0838
CGGGCGTA | 0.278
ACGCTCTA | 0.0247

Study 7 — target: ATF1, bZIP domain (human); technique: DHFR protein complementation; medium: yeast; reference: wild-type JUN-FOS pair; reading: higher = stronger binding
Setting: single substitutions, most at no-binding floor
Starting sequence: JUN, bZIP domain (human); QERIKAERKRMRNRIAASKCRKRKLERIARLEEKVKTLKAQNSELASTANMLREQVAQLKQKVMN; partner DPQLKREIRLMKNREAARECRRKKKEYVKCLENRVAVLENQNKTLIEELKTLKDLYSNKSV
Substitution | binding fitness [natural log]
S47I | -1.26
A40Q | -1.48
V35P | -1.58
V35G | -1.53
L45G | -1.54
V35W | -1.56
A57L | -1.49
L38M | -1.67
R53N | -1.48
V35T | -1.5
M51W | -1.51
A29R | -1.42
R30C | -1.56
E44R | -1.49
A49F | -1.53
E54Q | -1.53
A46F | -1.56
R53M | -1.58
M51D | -1.41
K34G | -1.52
T37Y | -1.47
K39Y | -1.48
E32I | -1.51
V56E | -1.64
I28R | -1.47

Further values, each from its own experiment
Molecule | target | test | test system | conditions | how to read | endpoint | result
PhoQ, residues 284 288 289 292 302 303 TASMAF | PhoP, residues 12 14 15 18 19 NMSSL (Escherichia coli, UniProt P23836) | Sort-seq, item: YFP reporter | E. coli | PhoQ-PhoP variant library, added: 10 µM Mg2+ | reference: high Mg2+ state, higher = stronger signaling | fold induction | 29.7
